Results collected from several papers.
Protocols differ between the studies behind these lines. ± marks the error that the study gave.
Organism: Salmonella typhimurium

SMILES | assay | test system | setting | scale | endpoint | result
Cc1cc(C(=O)NC(C)(C)COc2cccc3c2C(N)=NS(=O)(=O)N3)cc(C)n1 | Ames test, initial | TA98 | 15.0 µg/plate, with: rat liver S9 | relative to: solvent control | revertant ratio | 1
CC(C)N(N=O)C(C)C | mutagenicity, Ames plate incorporation | TA100 | 2500 µg/plate, without S9, methanol |  | revertant colonies per plate | 142 ± 10
N#C[C@@]1(n2ccc(N)nc2=O)O[C@H](CO)[C@@H](O)[C@H]1O |  | TA100 | 50 µM, without S9 | relative to: control | viability | 80%
COc1cccc(-c2n[nH]c(SCc3ccccn3)n2)c1OC | Ames test, preincubation | TA100 | 0.13 mg/plate, with rat liver S9 |  | revertant colonies per plate | 145
O=[N+]([O-])c1ccc(N2CCN(CCC(O)c3ccc(F)cc3)CC2)c(C(F)(F)F)c1 (stereo not drawn) | SOS/umu test | TA1535/pSK1002 | 0.125 mg/mL, 4 h, with S9, lower range |  | survival | 134%
CC(C)N(C)N=O | mutagenicity, Ames plate incorporation | TA1535 | 5000 µg/plate, 3 d, without S9, methanol |  | revertant colonies per plate | 33 ± 7
O=[N+]([O-])c1ccc(NC2CCNCC2)c(C(F)(F)F)c1 | SOS/umu test | TA1535/pSK1002 | 0.004 mg/mL, 4 h, with S9, full range |  | survival | 99.5%
CN(CC(C)(C)C)N=O | mutagenicity, Ames plate incorporation | TA1537 | 2500 µg/plate, without S9, methanol |  | revertant colonies per plate | 5.3 ± 1
OC(CCN1CC=C(c2ccc(F)cc2)CC1)c1ccc(F)c2ccccc12 (stereo not drawn) | SOS/umu test | TA1535/pSK1002 | 0.002 mg/mL, 4 h, with S9, lower range |  | survival | 112%
CC(=O)N1CCC(C(=O)N2CCN3C(=O)c4cc(-c5ccccc5)ccc4NC(=O)C3C2)CC1 (stereo not drawn) |  | TA1537 | 15.8 µg/plate | relative to: vehicle | fold increase in revertants | 1.3
O=NN1CCN(C2CCCC2)CC1 | mutagenicity, Ames plate incorporation | TA98 | 50 µg/plate, 3 d, without S9, methanol |  | revertant colonies per plate | 31 ± 4
O=[N+]([O-])c1ccc(N2CCC(NCCC(O)c3ccc(F)c4ccccc34)CC2)c(C(F)(F)F)c1 (stereo not drawn) | SOS/umu test | TA1535/pSK1002 | 6.1e-05 mg/mL, 4 h, without S9 |  | survival | 108%
